Measured values from different studies.
Lines come from different studies, so protocols differ. ± gives the spread as reported.
Technique: steady-state kinetics
B1: enzyme (Brachypodium distachyon, UniProt I1IPY7); chain MEQGKAALGWAARDASGHLSPYNFSRRVQKDDDVTIKVLFCGICHTDLHIIKNEWGNALYPIVPGHEVVGVVTDVGPGVKNFKAGETVGVGYFLDSCRTCDSCSKGHENYCPTLVLTSNGVDYDGATTQGGFSDVVVVNQDYVVRVPDTLPPDGAAPLLCAGVTVYSPMMQYGLNAPGKHLGVVGLGGLGHMAVKFGKAFGMKVTVISSSLRKREEALDRLGADDFLVSSDAEQMKAAAGAMDGIIDTVSAGHPIVPLLELLRPMGQMVVCGAPSEPLQLPAYAVITGGKRIAGNGVGSVRDCQAMLDFAGEHGITADVEVVKMDYVNTAVERLERNDVRYRFVIDVAGSLQQGGAA
B2: enzyme (Bifidobacterium adolescentis, UniProt A1A3M6); chain MIRRYLNTVEESKMISGAGAMNPVCPREDGRLEWGNGVVSMLFDTAGDSPVRLCNVAGRGMGPIGGRVTDDGRTVLERDPRPIVEVRAANTGSQDNRLTLIATVAGSVLRFVSAAASEPEEGSAEPYRLEIVQFASYAELEPHGRAFEPTAAERAEAAAQPSPETVRHADATAGLVVTSVFEAFPGLSAVRTYTRLSSARPLPIEAVSSLNLTVPMRVNCGKIDHSRVFWGDSAWAVENDWRSRPLRDVSVRNRNQVINPGQSSSRFAMSSASTWSTGVHEPAGIVQVEGSRRQSRDFSVMWQIEHNGPWEWEIGEDDPGLHISAFGPEYQDHHWYTELGEGHDFESVPVSFAISAGDWQQSVAEMTLQRRALRAAKARELGRSEQFERTQGLVIYNDYMNTLFGDPRLEKELPLVEGAARVGADIFCIDAGWYDSTDGGWWDMVGEWQASTNRFGEAGLKGLADTIRAHGMGLGLWLEPEVIGVKSPLAQSLPDDAFFQRHGVRVCDSGRYLLDFRSPAAREHVTRTVNRLIDDFGAVFFKFDYNTVPGVGTDLDAESAGAGLLGHCRAYLDWLDDLRRRHPDVMIENCGSGAMRADYAQLQRLDLQSTSDQCDPLIYAAIAAGAGLTILPEQQGNWGYAQQEMDDETAVFTLATGILGRLYLSGFIDRMDEHRLALVRDAVALHRRVLTEQQELVPFWPARLPDFDGDWLVVGLRHPSFLPSEDDDSCDYIIVWRRGGTPSVNVPLSEDCHIEQIFPNPAVPEHAPDAKPWTVERMDPETVRLNAATSKQPSARIFAIR
B3: anthranilate synthase (Streptomyces venezuelae, UniProt O30589); chain MDLSRLLDPSCPPFALLRRRTPGRDHDTVEVLIGRVHEAERLAELPVGPLPALALVPFRQIRERGFDVRDDGTPLSVLVAEETHTLPLAEALDRLPAHDVTVEDGGFDVSDEEYAGIVRRVIDEEIGSGEGANFVIRRTYTGEIPGFGRADALALFRRLLAGERGAYWTFVVHTGDRTLVGASPEVHVRMSGGTVVMNPISGTYRYPAGAAPTAEGLLAFLADRKETEELSMVVDEELKMMCTVGDMGGVVIGPRLKEMAHLAHTEYELRGRSSLDVREVLRETMFAATVTGSPVQNACRVIERHEVGGRGYYAGALALLGTDENGAQSLDSPILIRTADIAADGHLRVPVGATLVRHSDPAGEVAETHAKAAGVLTALGVREGRPAGGPAPAPTALADDPRVRAALDARRADLAPFWLRMQVRSAELSGHALVIDAEDTFTAMLAHVLRSSGLDVSVLRYDEPGLRELALAHEGPVVLGPGPGNPSDAADPKMRFLRALTADLVRDHRHGLLGVCLGHELIAAELGLEIVRKRTPFQGAQMRIDLFGQERTVGFYNSFTARCDERTATELALHRIEVSRDAETGEVHALRGPGFAGVQFHPESVLTTDGAALTASLLAGVLV
B4: cyc1 F95M (Streptomyces coelicolor, UniProt Q9K499); chain MHAFPHGTTATPTAIAVPPSLRLPVIEAAFPRQLHPYWPKLQETTRTWLLEKRLMPADKVEEYADGLCYTDLMAGYYLGAPDEVLQAIADYSAWMFVWDDRHDRDIVHGRAGAWRRLRGLLHTALDSPGDHLHHEDTLVAGFADSVRRLYAFLPATWNARFARHFHTVIEAYDREFHNRTRGIVPGVEEYLELRRLTFAHWIWTDLLEPSSGCELPDAVRKHPAYRRAALLSQEFAAWYNDLCSLPKEIAGDEVHNLGISLITHHSLTLEEAIGEVRRRVEECITEFLAVERDALRFADELADGTVRGKELSGAVRANVGNMRNWFSSVYWFHHESGRYMVDSWDDRSTPPYVNNEAAGEK
B5: enzyme (Sinorhizobium meliloti, UniProt Q92UV7); chain MTNAEVTIAVRHEPMRIAGRLVDTDDRVEVRYPWNDTVVGTVPAGRAEHAREAFAIAAAYQPKLTRYERQKILLATAEALAARKEEISDVITLELGISKADSLYEVGRAFDVFTLAGQMCIRDDGEIFSCDLTPHGKARKIFTMREPLTAISAITPFNHPLNMVAHKVAPAIATNNCVVVKPTELTPMTALLLADILYEAGLPPEMLSVVTGWPADIGMEMITNPHVDLVTFTGSVPVGKLIAANAHYKRQVLELGGNDPLIILNDLSDDDLARAADLAVAGATKNSGQRCTAVKRILCQESVADRFVPLVLERAKRLRFGDPMDRSTDLGTVIHEKAAALFEERVMRAAEEGADILYHPGRSGALLPPIVVDRVPHQSDLVLEETFGPIIPIVRVPDDDDATITLSNSTAFGLSSGVCTNDYRRMQKYIAGLKVGTVNIWEVPGYRIEMSPFGGIKDSGNGYKEGVIEAMKSFTNVKTFSLPWP
B6: iodotyrosine deiodinase (Haliscomenobacter hydrossis, UniProt F4KU78); chain MKQKPAFIPYAGAQFEPEEMLSKSAEYYQFMDHRRTVREFSNRAIPLEVIENIVMTASTAPSGAHKQPWTFVVVSDPQIKAKIRQAAEKEEFESYNGRMSNEWLEDLQPFGTDWHKPFLEIAPYLIVVFRKAYDVLPDGTQRKNYYVQESVGIACGFLLAAIHQAGLVALTHTPSPMNFLQKILQRPENERPFLLVPVGYPAEGAMVPDLQRKDKAAVMVVY
B7: HCT R356E (Coleus scutellarioides, UniProt E8ZAP2); chain MKIHVRDSTLVRPSAATPAVSLWNSNVDLVVPNFHTPSVYFYRPSGADNFFDTAVMKAALGRALVSFYPMAGRLKRDEDGRVEIDCNAEGVLFVEAESDGTVDDYGDFAPSLELRRLIPAVDYSQGISAYPLLVLQVTFFKCGGVSLGVGMQHHAADGFSGLHFINTWSDMARGLDITLPPFIDRTLLSARDPPQPQFKHVEYQPPPAMKTYEPAETVVSIFKLTKDQLTTLKAKSKEDGNTTTYSSYEMLSGHVWRCTCLARGLPEEQETKLYIATDGRSRLQPQLPPGYFGNVIFTATPLAVAGDLGSKPVWYAASKIHDALARMDNDYLRSALDFLELQPDLKALVRGAHTFECPNLGITSWVRLPIHDADFGWGRPIFMGPGGIAYEGLSFVLPSPTNDGSLSVAISLQAEHMKLFEKLLYQI
B8: protein (Streptomyces coelicolor, UniProt Q9K464); chain MAAYLCAPAVIHGEHSVETREIVEEVRGRHPHAPWAPRIDGIAASTGIESRGWMLPLEAAVAPGGGGDLGAAREALVRDGFTEQDANRAIAALKAVPASQTVQERTAPAWEAVQAYGERAARGALQIAGLDVADVDCLITSNSTTPALPGLDVALANRLPLRGDTMLLPATQWACVAGTRSLALAADLVAADPDRVVLVVISEALSTTYQPADDTLESLIVRLLFADTAVAAVVTGRPRPESVLRLDAAWHHTLPGTRDLHRLETRADGTHFVMDRRGPRAVQETVTAMWEWLRVRYEDDPSSWHPDVLLAHPGGTRVLEYMEQTMPDEWPSGLLSYSRDSYTSGNRGGAAVFDILRRAHDAGQKTGSRAVLYAAAPGLTATALEGEWL
B9: GTPBP3 E315A (Homo sapiens, UniProt Q969Y2); chain TRRSSGAPAPGSGATIFALSSGQGRCGIAVIRTSGPASGHALRILTAPRDLPLARHASLRLLSDPRSGEPLDRALVLWFPGPQSFTGEDCVEFHVHGGPAVVSGVLQALGSVPGLRPAEAGEFTRRAFANGKLNLTEVEGLADLIHAETEAQRRQALRQLDGELGHLCRGWAETLTKALAHVEAYIDFGEDDNLEEGVLEQADIEVRALQVALGAHLRDARRGQRLRSGVHVVVTGPPNAGKSSLVNLLSRKPVSIVSPEPGTTRDVLETPVDLAGFPVLLSDTAGLREGVGPVAQEGVRRARERLEQADLILAMLDASDLASPSSCNFLATVVASVGAQSPSDSSQRLLLVLNKSDLLSPEGPGPGPDLPPHLLLSCLTGEGLDGLLEALRKELAAVCGDPSTDPPLLTRARHQHHLQGCLDALGHYKQSKDLALAAEALRVARGHLTRLTGGGGTEEILDIIFQDFCVGK
B10: Nudt8 (Mus musculus, UniProt Q9CR24); chain MLPDGLSAEDEQRCRQLLARTTARLRSRPAAAAVLVPLCLVRGVPALLYTLRSSRLVGRHKGEVSFPGGKCDPDDQDVIHTALRETQEELGLEVPKEHVWGVLQPVYDREKATIVPVLANVGPLDLQSLRPNLEEVDEVFEMSLAHLLQTQNQGYTHFCQGGHFSYTLPVFLHGPHRVWGLTAVITELTLKLLAPGFYQPSLAVPELPRG
Sequence of UniProt O31663 (whole entry, looked up): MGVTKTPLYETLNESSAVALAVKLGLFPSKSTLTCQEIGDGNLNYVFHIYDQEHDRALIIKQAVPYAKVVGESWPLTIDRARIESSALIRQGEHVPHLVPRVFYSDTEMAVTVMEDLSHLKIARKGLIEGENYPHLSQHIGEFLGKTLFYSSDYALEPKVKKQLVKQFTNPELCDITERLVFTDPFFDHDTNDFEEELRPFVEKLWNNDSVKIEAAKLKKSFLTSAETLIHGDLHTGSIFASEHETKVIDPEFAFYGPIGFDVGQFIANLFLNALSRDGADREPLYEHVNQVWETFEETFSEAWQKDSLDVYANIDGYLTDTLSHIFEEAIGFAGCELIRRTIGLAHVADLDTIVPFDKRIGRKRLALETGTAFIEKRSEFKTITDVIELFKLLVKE
Sequence of UniProt Q8QZR1 (whole entry, looked up): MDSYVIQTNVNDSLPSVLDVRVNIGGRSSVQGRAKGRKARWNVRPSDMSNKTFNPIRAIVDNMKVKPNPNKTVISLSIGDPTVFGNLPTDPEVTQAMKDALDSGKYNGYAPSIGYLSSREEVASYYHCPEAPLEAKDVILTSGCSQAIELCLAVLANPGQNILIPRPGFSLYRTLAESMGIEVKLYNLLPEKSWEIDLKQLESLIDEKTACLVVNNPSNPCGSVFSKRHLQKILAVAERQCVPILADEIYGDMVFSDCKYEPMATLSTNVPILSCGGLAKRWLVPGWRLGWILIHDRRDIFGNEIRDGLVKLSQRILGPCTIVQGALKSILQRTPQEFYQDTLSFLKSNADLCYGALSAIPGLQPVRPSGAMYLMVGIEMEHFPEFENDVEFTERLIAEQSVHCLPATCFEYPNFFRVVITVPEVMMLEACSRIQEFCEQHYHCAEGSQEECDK

Molecule | substrate | pH | temperature | notes | with | kcat [s⁻¹]
Tat (Mus musculus, UniProt Q8QZR1) | N[C@@H](CCC(=O)O)C(=O)O | pH 7 | 38 °C | – | PLP | 9.33 ± 0.667
B1 (enzyme) | NC(=O)c1ccc[n+]([C@@H]2O[C@H](COP(=O)(O)OP(=O)(O)OC[C@H]3O[C@@H](n4cnc5c(N)ncnc54)[C@H](OP(=O)(O)O)[C@@H]3O)[C@@H](O)[C@H]2O)c1 | pH 8.8 | 23 °C | cofactor varied | – | 5.24
B2 (enzyme) | O=[N+]([O-])c1ccc(O[C@H]2O[C@H](CO)[C@H](O)[C@H](O)[C@H]2O)cc1 | pH 5 | 40 °C | – | – | 2.43 ± 0.01
B3 (anthranilate synthase) | NC(=O)CC[C@H](N)C(=O)O | pH 7.5 | 30 °C | – | chorismate saturating; MgCl2 12.5 mM | 0.57 ± 0.02
B4 (cyc1 F95M) | CC(C)=CCC/C(C)=C/CC/C(C)=C/CO[P@@](=O)(O)OP(=O)(O)O | pH 6.5 | 30 °C | – | MgCl2 10 mM | 0.00316 ± 9e-05
AphC (Rhodococcus jostii, UniProt Q0S9X1) | CCc1ccc(O)c(O)c1 | pH 8 | 25 °C | apparent | O2 | 0.246
B5 (enzyme) | NC(=O)c1ccc[n+]([C@@H]2O[C@H](COP(=O)(O)OP(=O)(O)OC[C@H]3O[C@@H](n4cnc5c(N)ncnc54)[C@H](O)[C@@H]3O)[C@@H](O)[C@H]2O)c1 | pH 7.5 | 30 °C | cofactor varied | – | 2.2 ± 0.1
B6 (iodotyrosine deiodinase) | N[C@@H](Cc1cc(F)c(O)c(I)c1)C(=O)O | pH 7.4 | 25 °C | – | – | 0.27 ± 0.05
B7 (HCT R356E) | NCc1ccc(O)c(O)c1 | pH 8 | – | pseudo-first-order | p-coumaroyl CoA | 6.7 ± 0.6
B8 (protein) | CC(=O)CC(=O)SCCNC(=O)CCNC(=O)[C@H](O)C(C)(C)COP(=O)(O)OP(=O)(O)OC[C@H]1O[C@@H](n2cnc3c(N)ncnc32)[C@H](O)[C@@H]1OP(=O)(O)O | pH 7.8 | 30 °C | NaCl 150 mM | methylmalonyl-CoA 1.0 mM | 0.0485 ± 0.00133
mtnK (Bacillus subtilis, UniProt O31663) | Nc1ncnc2c1ncn2[C@@H]1O[C@H](COP(=O)(O)OP(=O)(O)OP(=O)(O)O)[C@@H](O)[C@H]1O | pH 7.8 | 30 °C | – | 5-methylthioribose | 1.9
B9 (GTPBP3 E315A) | Nc1nc2c(ncn2[C@@H]2O[C@H](COP(=O)(O)OP(=O)(O)OP(=O)(O)O)[C@@H](O)[C@H]2O)c(=O)[nH]1 | pH 8 | 37 °C | KCl 300 mM | – | 0.00117 ± 0.000333
B10 (Nudt8) | CCCC(=O)SCCNC(=O)CCNC(=O)[C@H](O)C(C)(C)COP(=O)(O)OP(=O)(O)OC[C@H]1O[C@@H](n2cnc3c(N)ncnc32)[C@H](O)[C@@H]1OP(=O)(O)O | pH 8.5 | – | – | 2 mM Mn2+ | 1.78 ± 0.15
